Measured values from different studies.
A part holds a random share of what one study measured. Positions count from the first letter of the parent shown.

Sample 1
Target: UDP-N-acetylglucosamine--peptide N-acetylglucosaminyltransferase 110 kDa subunit (OGT, Homo sapiens, UniProt O15294)
Observed: binding
Method: phage display NGS
Form: peptide
Relative to: input library
Construct (O15294 1-1046): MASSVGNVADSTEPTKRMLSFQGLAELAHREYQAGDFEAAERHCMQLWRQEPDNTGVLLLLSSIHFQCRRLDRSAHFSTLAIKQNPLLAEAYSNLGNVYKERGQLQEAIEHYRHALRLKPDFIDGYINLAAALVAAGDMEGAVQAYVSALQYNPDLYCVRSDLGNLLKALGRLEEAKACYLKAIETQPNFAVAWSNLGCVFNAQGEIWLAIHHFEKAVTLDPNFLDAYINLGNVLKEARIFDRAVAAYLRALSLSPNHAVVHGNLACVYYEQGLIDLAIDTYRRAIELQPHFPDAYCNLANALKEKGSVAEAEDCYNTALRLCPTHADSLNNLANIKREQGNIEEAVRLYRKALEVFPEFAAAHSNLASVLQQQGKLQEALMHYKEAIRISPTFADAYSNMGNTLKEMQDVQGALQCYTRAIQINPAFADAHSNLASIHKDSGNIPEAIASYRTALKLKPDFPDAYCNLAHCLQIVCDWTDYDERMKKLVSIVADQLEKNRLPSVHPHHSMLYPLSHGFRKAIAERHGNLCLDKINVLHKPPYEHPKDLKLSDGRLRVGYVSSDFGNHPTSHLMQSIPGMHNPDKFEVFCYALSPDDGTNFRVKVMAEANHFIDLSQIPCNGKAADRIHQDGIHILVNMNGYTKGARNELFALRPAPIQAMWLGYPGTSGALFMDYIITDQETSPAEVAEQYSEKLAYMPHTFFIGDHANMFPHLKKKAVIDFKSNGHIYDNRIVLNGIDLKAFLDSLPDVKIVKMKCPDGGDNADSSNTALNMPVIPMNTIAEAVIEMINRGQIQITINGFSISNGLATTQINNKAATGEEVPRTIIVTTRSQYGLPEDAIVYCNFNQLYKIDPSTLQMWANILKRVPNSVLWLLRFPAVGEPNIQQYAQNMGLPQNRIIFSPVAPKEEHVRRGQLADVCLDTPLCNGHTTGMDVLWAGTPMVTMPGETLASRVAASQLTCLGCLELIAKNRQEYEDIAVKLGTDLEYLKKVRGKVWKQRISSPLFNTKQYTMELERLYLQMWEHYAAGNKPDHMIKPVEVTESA
| Molecule | minimum log2 enrichment ratio |
| --- | --- |
| TYRHSDHPVSSFAHV | 2.14 |
| VHIDNWNHHHYAAVE | 2.6 |
| VGMNQNAYMPMYQIH | 3.37 |
| ETYFPPVYQMEFVQR | 4.88 |
| EWGHGAYMHHNHEGP | 2.08 |
| TKMNHHETTSEYLH | 1.63 |
| SIIPLAHVHNDHHAH | 2.93 |
| HGHRWAHPVGPHGPM | 2.11 |
| NTTHQVHRFKWHQHT | 2.03 |
| NFFPQYQIEVSLPKH | 5.23 |
| VPLYHERHHHGPHE | 2.71 |
| HLGHPHFYNHVYHYA | 1.8 |
| TGTKYVPMYQINPY | 3.4 |
| WTSQWQTRHPHHHTS | 3.06 |
| SIHTWSVGKHFRHHW | 2.78 |
| TYSDTNHHAHQWLLK | 1.8 |
| HVDVRFPSAHHVRGT | 1.15 |
| HDTMHHFYHKREWTQ | 1.52 |
| WIFPSQHARHYNTLG | 1.78 |

Sample 2
Target: CCNB1, cyclin fold, Cln2 fusion (human)
Method: yeast growth competition, sequencing
Sample: yeast
Setting: weak parent motif
Relative to: not given
Direction: higher = stronger binding
Starting sequence: CDC25A docking peptide (human); PPHRRRLLFACSP
| Substitution | normalised enrichment score |
| --- | --- |
| C11P | 0.369 |
| R5P | 0.298 |
| F9T | 1.04 |
| R6I | -0.117 |
| P2I | 0.752 |
| L8W | 0.454 |
| P1L | 0.575 |
| P2L | 0.374 |

Sample 3
Target: ABI1, truncated, D143A, DHFR fusion (Arabidopsis thaliana)
Method: DHFR PCA, deep sequencing
Sample: yeast
Setting: methotrexate growth selection, single substitutions
Added: (+)-ABA 0.032 µM
Relative to: wild-type fitted maximum
Direction: higher = stronger binding
Starting sequence: PYL1, truncated, DHFR fusion (Arabidopsis thaliana); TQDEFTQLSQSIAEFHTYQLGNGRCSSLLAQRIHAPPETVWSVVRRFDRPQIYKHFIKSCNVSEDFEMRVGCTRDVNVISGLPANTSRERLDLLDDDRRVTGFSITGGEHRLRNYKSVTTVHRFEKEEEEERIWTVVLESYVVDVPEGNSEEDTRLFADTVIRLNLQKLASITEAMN
| Substitution | relative binding score [%] |
| --- | --- |
| V145E | -10.2 |
| P50L | -1.13 |
| R113W | 6.22 |
| S11R | 1.8 |
| N177H | 64.2 |
| S27T | 7.33 |
| A158T | 8.25 |
| E127I | 23.9 |

Sample 4
Target: tungstate, free oxyanion
Method: microfluidic competitive inhibition
Sample: in vitro, cell-free expressed
Concentration: not given
Setting: derived from inhibition constants, unchanged parent 2230 nM
Direction: lower = stronger binding
Starting sequence: PafA, mature enzyme, eGFP fusion (Elizabethkingia meningoseptica, UniProt Q9KJX5); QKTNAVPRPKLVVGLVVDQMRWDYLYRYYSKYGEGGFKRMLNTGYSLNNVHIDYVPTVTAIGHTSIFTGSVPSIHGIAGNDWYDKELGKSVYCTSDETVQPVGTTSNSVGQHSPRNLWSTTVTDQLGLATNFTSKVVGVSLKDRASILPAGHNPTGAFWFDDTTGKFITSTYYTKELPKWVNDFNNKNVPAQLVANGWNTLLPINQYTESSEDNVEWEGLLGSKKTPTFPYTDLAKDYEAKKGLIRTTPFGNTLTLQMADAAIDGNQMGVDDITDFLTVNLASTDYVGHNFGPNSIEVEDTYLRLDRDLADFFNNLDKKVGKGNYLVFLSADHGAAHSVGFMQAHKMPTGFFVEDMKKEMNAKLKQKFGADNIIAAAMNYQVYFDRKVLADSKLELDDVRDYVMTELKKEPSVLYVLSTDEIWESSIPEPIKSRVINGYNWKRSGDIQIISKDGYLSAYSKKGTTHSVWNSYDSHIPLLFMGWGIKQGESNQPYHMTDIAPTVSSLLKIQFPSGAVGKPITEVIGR
| Substitution | oxyanion analog dissociation constant [µM] |
| --- | --- |
| D84V | 2.42 |
| Q448G | 2.51 |
| V122G | 1.07 |
| F511V | 2.28 |
| D446V | 1.98 |

Excerpt of the above (sample 1):
| Molecule | minimum log2 enrichment ratio |
| --- | --- |
| VGMNQNAYMPMYQIH | 3.37 |
| ETYFPPVYQMEFVQR | 4.88 |
